Published values gathered from unrelated publications.
Each line is one published result; not all experiments were run side by side. “And” joins repeats or separate records; there may be more than shown. ± marks the error that the study gave.

SMILES | test | system | setting | plasma concentration
C[C@H](CCC(=O)NCC(=O)O)[C@H]1CC[C@H]2[C@@H]3[C@H](O)C[C@@H]4C[C@H](O[C@@H]5O[C@H](C(=O)O)[C@@H](O)[C@H](O)[C@H]5O)CC[C@]4(C)[C@H]3CC[C@]12C |  | healthy human volunteers, plasma | dose not given, 0 h, control phase, probe drugs alone | 40.3 ± 16.1 nM
O=C(O)[C@H]1O[C@@H](Oc2ccc(/C=C/c3cc(O)cc(O)c3)cc2)[C@H](O)[C@@H](O)[C@@H]1O |  | human, plasma | median | 87.1 nM
O=C(C1CCCCC1)N1CC(=O)N2CCc3ccccc3[C@@H]2C1 |  | human | oral, 60 mg/kg, 4 h | 26 ng/mL
CC1(C)CCC(CN2CCN(c3ccc(C(=O)NS(=O)(=O)c4ccc(NCC5CCOCC5)c([N+](=O)[O-])c4)c(Oc4cnc5[nH]ccc5c4)c3)CC2)=C(c2ccc(Cl)cc2)C1 |  | human, plasma | oral, 300 mg/day | 1520 nM and 774 nM
O=S(=O)(O)Oc1cc(O)cc(/C=C/c2ccc(O)cc2)c1 |  | human, plasma | median | 997 nM
C[C@@H](O)[C@H]1C(=O)N2C(C(=O)O)=C(SCCN=CN)C[C@H]12 |  | human | intravenous, 500 mg single, 0.48 h | 86900 nM
Cn1cnc2c1c(=O)[nH]c(=O)n2C |  | human, both sexes, plasma | median | 17100 nM
CO[C@H]1/C=C/O[C@@]2(C)Oc3c(C)c(O)c4c(O)c(c(/C=N/N5CCN(C)CC5)c(O)c4c3C2=O)NC(=O)/C(C)=C\C=C\[C@H](C)[C@H](O)[C@@H](C)[C@@H](O)[C@@H](C)[C@H](OC(C)=O)[C@@H]1C |  | healthy male humans, plasma | oral, dose not given, 3 h, with cocktail | 7760 ng/mL
C[C@H](CCC(=O)NCCS(=O)(=O)O)[C@H]1CC[C@H]2[C@@H]3CC[C@@H]4C[C@H](OS(=O)(=O)O)CC[C@]4(C)[C@H]3CC[C@]12C |  | healthy human volunteers, plasma | dose not given, 0 h, baseline phase, no drug | 140 ± 43 nM
CC1(C)CCC(CN2CCN(c3ccc(C(=O)NS(=O)(=O)c4ccc(NCC5CCOCC5)c([N+](=O)[O-])c4)c(Oc4cnc5[nH]ccc5c4)c3)CC2)=C(c2ccc(Cl)cc2)C1 | UPLC-MS/MS | human patients | oral, dose not given, 6 h post-dose, steady state, median | 1850 ng/mL
Cn1c(=O)[nH]c2nc[nH]c2c1=O |  | human, both sexes, plasma | median | 11700 nM
N#Cc1ccc(C(c2ccc(C#N)cc2)n2cncn2)cc1 |  | human patients, plasma | oral, 12.5 mg daily, day of surgery | 172 ± 68.4 ng/mL
O=C(O)CCCCCCCCCCCCC(=O)O |  | healthy human volunteers, plasma | dose not given, 0 h, control phase, probe drugs alone | 58.3 ± 7.7 nM
CCCN(CCC)S(=O)(=O)c1ccc(C(=O)O)cc1 |  | healthy male humans, plasma | oral, dose not given, 4 h, 1 h before cocktail | 337000 nM
C[C@H](CCC(=O)NCCS(=O)(=O)O)[C@H]1CC[C@H]2[C@@H]3[C@H](O)C[C@@H]4C[C@H](O)CC[C@]4(C)[C@H]3C[C@H](O)[C@]12C |  | healthy human volunteers, plasma | dose not given, 0 h, control phase, probe drugs alone | 17.2 ± 4.7 nM
Cn1c(=O)c2c(ncn2C)n(C)c1=O |  | human, both sexes, plasma | mean | 179000 nM
C[C@H](CCC(=O)NCC(=O)O)[C@H]1CC[C@H]2[C@@H]3[C@H](O)C[C@@H]4C[C@H](O)CC[C@]4(C)[C@H]3CC[C@]12C |  | healthy human volunteers, plasma | dose not given, 0 h, control phase, probe drugs alone | 485 ± 81 nM
Cn1c(=O)c2[nH]cnc2n(C)c1=O |  | human, both sexes, plasma | median | 32500 nM
C[C@H](CCC(=O)O)[C@H]1CC[C@H]2[C@@H]3CC[C@@H]4C[C@H](OS(=O)(=O)O)CC[C@]4(C)[C@H]3CC[C@]12C |  | healthy human volunteers, plasma | dose not given, 0 h, control phase, probe drugs alone | 292 ± 17 nM
O=C(O)[C@H]1O[C@@H](Oc2cc(O)cc(/C=C\c3ccc(O)cc3)c2)[C@H](O)[C@@H](O)[C@@H]1O |  | human, plasma | median | 426 nM
COCCCOc1ccnc(C[S+]([O-])c2nc3ccccc3[nH]2)c1C (centres unmarked) |  | healthy male humans, plasma | oral, 40 mg/day for -4 days, 1.5 h | 184 ng/mL
CN1CCN(c2ccc(OC(F)(F)F)c(Nc3ncc4c(n3)-c3c(c(C(N)=O)nn3CCO)CC4)c2)CC1 | LC-MS/MS | human, plasma | oral, 12 mg/m2, 48 h post-dose | 7.2 ng/mL and 10.9 ng/mL and 7.18 ng/mL and 11.8 ng/mL and 3.1 ng/mL and 28.4 ng/mL
O=C(Nc1cnccc1Cl)N1CCN(Cc2ccc3c(c2)OC(F)(F)O3)CC1 |  | human, plasma | 10 mg single dose, 24 h post dose day 1 | 6.21 ng/mL and 4.4 ng/mL
C[C@H](CCC(=O)NCC(=O)O)[C@H]1CC[C@H]2[C@@H]3[C@H](O)C[C@@H]4C[C@H](O)CC[C@]4(C)[C@H]3C[C@H](O)[C@]12C |  | healthy human volunteers, plasma | dose not given, 0 h, baseline phase, no drug | 51.3 ± 17 nM
CC[C@@H]([C@H](C)O)n1ncn(-c2ccc(N3CCN(c4ccc(OC[C@@H]5CO[C@@](Cn6cncn6)(c6ccc(F)cc6F)C5)cc4)CC3)cc2)c1=O |  | human patients, induction therapy, plasma | oral, 300 mg/day, day 21, mean | 900 ng/mL
Cc1cc(N(CCOS(C)(=O)=O)CCOS(C)(=O)=O)ccc1C=O |  | human, plasma | intravenous, 9 mg/m^2, 5 min | 14.5 ng/mL
Cn1c(=O)[nH]c(=O)c2[nH]cnc21 |  | human, both sexes, plasma | mean | 5310 nM
C[C@H](CCC(=O)NCC(=O)O)[C@H]1CC[C@H]2[C@@H]3CC[C@@H]4C[C@H](OS(=O)(=O)O)CC[C@]4(C)[C@H]3C[C@H](O)[C@]12C |  | healthy human volunteers, plasma | dose not given, 0 h, baseline phase, no drug | 256 ± 72 nM
COc1cc2c(cc1OC)CN(CCc1ccc(NC(=O)c3cc(OC)c(OC)cc3NC(=O)c3cnc4ccccc4c3)cc1)CC2 |  | human, plasma | intravenous infusion, 5.9 mg/kg, 90 min | 2850 nM and 2560 nM and 3880 nM

Excerpt of the above:
SMILES | test | system | setting | plasma concentration
O=S(=O)(O)Oc1cc(O)cc(/C=C/c2ccc(O)cc2)c1 |  | human, plasma | median | 997 nM
CC1(C)CCC(CN2CCN(c3ccc(C(=O)NS(=O)(=O)c4ccc(NCC5CCOCC5)c([N+](=O)[O-])c4)c(Oc4cnc5[nH]ccc5c4)c3)CC2)=C(c2ccc(Cl)cc2)C1 |  | human, plasma | oral, 300 mg/day | 1520 nM and 774 nM
C[C@H](CCC(=O)NCC(=O)O)[C@H]1CC[C@H]2[C@@H]3CC[C@@H]4C[C@H](OS(=O)(=O)O)CC[C@]4(C)[C@H]3C[C@H](O)[C@]12C |  | healthy human volunteers, plasma | dose not given, 0 h, baseline phase, no drug | 256 ± 72 nM
Cn1c(=O)c2c(ncn2C)n(C)c1=O |  | human, both sexes, plasma | mean | 179000 nM
Cn1c(=O)[nH]c(=O)c2[nH]cnc21 |  | human, both sexes, plasma | mean | 5310 nM
